Published values pooled from the literature.
Numbered parts are unrelated; each lists some results of a single study. Positions count from the first letter of the parent shown.
Sequence of UniProt Q13705 (whole entry, looked up): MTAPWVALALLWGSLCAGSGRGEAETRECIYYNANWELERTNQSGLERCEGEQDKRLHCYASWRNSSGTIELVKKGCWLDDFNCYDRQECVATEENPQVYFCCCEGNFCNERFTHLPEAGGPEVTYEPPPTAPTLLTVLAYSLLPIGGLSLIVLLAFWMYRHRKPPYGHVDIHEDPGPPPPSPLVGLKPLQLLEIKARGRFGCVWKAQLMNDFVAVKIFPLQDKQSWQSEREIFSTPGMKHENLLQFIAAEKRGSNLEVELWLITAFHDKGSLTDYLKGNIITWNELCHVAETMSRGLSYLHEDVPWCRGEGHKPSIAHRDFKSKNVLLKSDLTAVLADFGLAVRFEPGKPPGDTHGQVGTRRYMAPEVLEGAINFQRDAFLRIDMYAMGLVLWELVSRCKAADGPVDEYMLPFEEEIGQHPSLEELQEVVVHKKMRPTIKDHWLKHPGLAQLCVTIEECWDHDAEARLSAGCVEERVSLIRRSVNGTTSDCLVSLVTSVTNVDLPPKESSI
Sequence of UniProt P29320 (whole entry, looked up): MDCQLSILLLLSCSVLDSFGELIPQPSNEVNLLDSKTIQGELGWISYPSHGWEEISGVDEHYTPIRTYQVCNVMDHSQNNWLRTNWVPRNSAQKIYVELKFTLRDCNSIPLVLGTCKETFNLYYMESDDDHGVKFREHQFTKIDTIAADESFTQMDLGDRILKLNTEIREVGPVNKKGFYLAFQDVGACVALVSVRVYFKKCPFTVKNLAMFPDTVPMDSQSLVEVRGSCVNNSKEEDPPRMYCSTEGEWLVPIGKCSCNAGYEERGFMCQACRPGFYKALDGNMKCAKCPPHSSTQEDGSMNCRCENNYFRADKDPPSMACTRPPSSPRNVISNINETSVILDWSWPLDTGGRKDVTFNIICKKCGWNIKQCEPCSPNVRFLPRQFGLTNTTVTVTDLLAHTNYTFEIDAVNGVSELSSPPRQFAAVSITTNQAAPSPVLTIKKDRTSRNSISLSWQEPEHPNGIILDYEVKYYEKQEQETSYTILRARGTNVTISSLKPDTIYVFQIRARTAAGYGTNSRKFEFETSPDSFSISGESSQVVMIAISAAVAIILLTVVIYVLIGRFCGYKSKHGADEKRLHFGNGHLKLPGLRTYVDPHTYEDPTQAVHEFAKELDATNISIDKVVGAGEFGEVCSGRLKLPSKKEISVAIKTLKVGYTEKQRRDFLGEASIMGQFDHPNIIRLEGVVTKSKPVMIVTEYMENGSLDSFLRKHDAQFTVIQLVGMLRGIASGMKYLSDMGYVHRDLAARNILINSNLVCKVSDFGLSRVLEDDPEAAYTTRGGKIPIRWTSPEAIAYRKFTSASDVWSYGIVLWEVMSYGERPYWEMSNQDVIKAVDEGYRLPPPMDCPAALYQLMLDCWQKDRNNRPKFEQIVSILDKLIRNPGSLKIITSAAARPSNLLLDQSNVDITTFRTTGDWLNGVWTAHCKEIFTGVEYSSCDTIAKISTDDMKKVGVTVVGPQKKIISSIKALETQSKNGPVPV
Sequence of UniProt P42684 (whole entry, looked up): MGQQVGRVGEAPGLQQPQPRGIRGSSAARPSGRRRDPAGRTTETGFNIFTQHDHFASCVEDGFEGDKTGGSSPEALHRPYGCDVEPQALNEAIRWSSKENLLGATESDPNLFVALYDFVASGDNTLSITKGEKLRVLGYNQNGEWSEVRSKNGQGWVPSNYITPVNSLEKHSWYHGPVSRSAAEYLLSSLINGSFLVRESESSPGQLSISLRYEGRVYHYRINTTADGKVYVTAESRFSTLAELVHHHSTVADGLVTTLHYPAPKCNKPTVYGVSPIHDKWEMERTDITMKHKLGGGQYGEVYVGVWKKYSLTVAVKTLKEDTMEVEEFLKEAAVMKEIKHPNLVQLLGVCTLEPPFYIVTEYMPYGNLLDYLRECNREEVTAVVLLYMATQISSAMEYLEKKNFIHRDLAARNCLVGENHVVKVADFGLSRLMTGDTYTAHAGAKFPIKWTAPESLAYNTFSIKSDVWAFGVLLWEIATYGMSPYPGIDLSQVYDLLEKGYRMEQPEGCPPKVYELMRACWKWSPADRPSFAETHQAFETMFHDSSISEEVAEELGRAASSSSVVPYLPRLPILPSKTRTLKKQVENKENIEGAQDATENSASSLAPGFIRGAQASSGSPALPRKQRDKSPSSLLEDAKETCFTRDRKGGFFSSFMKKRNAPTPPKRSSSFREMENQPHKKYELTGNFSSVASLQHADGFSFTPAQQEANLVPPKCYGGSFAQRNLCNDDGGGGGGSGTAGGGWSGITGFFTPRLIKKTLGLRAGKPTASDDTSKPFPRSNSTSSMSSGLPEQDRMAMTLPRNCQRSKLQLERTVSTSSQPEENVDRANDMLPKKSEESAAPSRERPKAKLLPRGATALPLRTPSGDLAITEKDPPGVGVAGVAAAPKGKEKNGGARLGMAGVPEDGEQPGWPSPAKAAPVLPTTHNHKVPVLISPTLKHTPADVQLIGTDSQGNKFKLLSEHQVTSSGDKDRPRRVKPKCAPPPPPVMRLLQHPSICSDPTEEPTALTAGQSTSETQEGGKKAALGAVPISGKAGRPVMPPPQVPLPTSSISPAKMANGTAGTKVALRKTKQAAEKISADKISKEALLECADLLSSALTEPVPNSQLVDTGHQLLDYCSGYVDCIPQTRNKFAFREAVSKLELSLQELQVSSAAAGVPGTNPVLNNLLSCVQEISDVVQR
Sequence of UniProt Q8NG66 (whole entry, looked up): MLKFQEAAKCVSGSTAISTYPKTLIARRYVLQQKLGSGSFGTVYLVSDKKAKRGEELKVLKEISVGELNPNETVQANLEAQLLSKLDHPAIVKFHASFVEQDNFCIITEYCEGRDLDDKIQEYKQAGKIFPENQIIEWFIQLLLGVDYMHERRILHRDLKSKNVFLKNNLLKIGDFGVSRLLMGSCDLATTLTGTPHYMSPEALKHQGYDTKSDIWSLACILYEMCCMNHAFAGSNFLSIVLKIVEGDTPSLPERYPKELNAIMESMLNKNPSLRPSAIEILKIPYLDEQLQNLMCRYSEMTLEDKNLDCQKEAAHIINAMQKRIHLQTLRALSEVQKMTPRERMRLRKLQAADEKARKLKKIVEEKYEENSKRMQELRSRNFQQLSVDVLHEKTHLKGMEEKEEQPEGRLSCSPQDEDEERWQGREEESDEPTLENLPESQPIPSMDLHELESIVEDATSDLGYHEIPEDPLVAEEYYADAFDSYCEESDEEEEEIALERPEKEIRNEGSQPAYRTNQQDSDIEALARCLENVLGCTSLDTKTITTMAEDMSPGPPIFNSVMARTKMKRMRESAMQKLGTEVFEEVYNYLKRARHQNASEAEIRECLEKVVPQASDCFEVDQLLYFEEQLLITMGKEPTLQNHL
Sequence of UniProt P53779 (whole entry, looked up): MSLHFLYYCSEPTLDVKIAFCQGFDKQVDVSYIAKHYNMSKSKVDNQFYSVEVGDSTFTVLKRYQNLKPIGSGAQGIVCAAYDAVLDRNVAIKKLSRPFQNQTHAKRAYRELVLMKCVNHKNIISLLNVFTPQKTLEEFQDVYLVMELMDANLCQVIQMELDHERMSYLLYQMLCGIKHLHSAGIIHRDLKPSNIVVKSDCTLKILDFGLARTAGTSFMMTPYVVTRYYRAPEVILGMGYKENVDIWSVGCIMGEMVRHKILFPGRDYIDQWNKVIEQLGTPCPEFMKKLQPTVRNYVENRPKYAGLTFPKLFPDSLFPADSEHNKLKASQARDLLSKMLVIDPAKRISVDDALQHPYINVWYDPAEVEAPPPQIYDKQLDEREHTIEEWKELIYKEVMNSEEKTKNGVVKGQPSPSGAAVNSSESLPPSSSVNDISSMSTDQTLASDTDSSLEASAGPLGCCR
Sequence of UniProt P49841 (whole entry, looked up): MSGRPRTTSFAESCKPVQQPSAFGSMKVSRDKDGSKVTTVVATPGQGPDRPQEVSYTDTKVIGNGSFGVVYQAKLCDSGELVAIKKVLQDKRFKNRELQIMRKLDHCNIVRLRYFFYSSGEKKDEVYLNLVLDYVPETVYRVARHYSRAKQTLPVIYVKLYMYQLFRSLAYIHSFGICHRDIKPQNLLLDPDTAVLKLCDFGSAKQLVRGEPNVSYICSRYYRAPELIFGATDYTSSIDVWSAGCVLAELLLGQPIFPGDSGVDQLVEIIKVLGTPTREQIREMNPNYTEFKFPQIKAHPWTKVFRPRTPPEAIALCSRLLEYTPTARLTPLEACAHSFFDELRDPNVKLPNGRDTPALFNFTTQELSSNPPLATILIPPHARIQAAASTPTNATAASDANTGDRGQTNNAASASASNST
Sequence of UniProt Q8WTQ7 (whole entry, looked up): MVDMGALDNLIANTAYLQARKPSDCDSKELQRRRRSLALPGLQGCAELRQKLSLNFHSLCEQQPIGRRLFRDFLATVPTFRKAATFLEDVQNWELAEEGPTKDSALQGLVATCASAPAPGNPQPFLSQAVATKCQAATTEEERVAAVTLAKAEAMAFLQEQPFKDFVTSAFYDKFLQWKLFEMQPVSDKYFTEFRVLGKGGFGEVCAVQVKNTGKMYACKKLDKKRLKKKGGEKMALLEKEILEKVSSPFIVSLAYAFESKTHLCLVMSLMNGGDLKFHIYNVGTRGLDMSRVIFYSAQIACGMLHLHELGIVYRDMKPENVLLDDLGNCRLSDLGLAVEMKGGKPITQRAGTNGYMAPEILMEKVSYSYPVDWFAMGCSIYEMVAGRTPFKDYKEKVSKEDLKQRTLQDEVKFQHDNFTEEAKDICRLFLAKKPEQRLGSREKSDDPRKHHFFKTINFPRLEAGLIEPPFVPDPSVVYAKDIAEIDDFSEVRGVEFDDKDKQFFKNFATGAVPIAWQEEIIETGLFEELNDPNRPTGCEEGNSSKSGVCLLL
Sequence of UniProt Q96PN8 (whole entry, looked up): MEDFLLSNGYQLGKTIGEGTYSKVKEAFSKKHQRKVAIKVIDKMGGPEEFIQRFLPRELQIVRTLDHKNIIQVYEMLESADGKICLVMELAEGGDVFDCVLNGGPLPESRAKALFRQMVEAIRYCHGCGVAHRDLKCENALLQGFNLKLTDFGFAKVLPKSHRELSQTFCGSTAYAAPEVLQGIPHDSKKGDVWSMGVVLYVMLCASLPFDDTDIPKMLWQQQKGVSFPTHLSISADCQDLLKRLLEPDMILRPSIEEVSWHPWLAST

Series 1
Variant: V142F
Target: ABI1, truncated, D143A, DHFR fusion (Arabidopsis thaliana)
Technique: DHFR PCA, deep sequencing
Matrix: yeast
Notes: methotrexate growth selection, single substitutions
Relative to: wild-type fitted maximum
Direction: higher = stronger binding
Starting sequence: PYL1, truncated, DHFR fusion (Arabidopsis thaliana); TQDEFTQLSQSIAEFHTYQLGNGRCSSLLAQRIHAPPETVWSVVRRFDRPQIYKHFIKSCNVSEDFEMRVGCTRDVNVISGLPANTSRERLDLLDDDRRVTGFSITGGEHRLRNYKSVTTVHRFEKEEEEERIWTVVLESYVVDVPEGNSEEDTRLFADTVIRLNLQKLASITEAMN; partner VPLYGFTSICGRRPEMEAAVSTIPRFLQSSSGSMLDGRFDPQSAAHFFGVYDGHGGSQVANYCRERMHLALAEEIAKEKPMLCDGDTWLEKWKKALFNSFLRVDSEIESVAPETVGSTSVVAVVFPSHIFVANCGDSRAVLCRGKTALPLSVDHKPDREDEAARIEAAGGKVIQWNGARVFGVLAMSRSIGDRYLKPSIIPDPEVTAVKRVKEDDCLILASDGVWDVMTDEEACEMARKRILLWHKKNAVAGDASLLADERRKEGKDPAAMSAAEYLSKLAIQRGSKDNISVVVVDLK
| with | relative binding score [%] |
| --- | --- |
| (+)-ABA 2500 µM | 88.9 |
| (+)-ABA 0.0091 µM | -1.54 |
| (+)-ABA 0.39 µM | -2.27 |
| (+)-ABA 58 µM | 48.1 |
| (+)-ABA 0.032 µM | -1.07 |
| (+)-ABA 1.4 µM | -7.15 |

Series 2
Target: CCND2, cyclin fold, Cln2 fusion (human)
Technique: yeast growth competition, sequencing
Matrix: yeast
Notes: weak parent motif
Relative to: not given
Direction: higher = stronger binding
Starting sequence: BRCA2 docking peptide (human); PSIKRNLLNEFDR
| Variant | normalised enrichment score |
| --- | --- |
| PDIKRNLLNEFDR [S2D] | 0.564 |
| HSIKRNLLNEFDR [P1H] | -0.0205 |
| PSIFRNLLNEFDR [K4F] | -0.0465 |
| PSIKPNLLNEFDR [R5P] | 0.134 |
| PSIKRNLLNAFDR [E10A] | -0.137 |
| PSIKTNLLNEFDR [R5T] | -0.301 |
| PSIKRNLLDEFDR [N9D] | 0.402 |
| PSIKRNLHNEFDR [L8H] | 0.358 |

Series 3
Structure (SMILES): CC(C)CC(=O)N1CCc2nc(-c3ccc(Br)cc3)nc(N(C)Cc3ccccc3)c2C1
Effect on: cell-free assay
Technique: competition with immobilised ligand
Concentration: 0.1 µM
| target | remaining binding [%] |
| --- | --- |
| MAP3K14 (Homo sapiens, UniProt Q99558) | 100 |
| Ribosomal protein S6 kinase alpha-6, N-terminal kinase domain (RPS6KA6, Homo sapiens, UniProt Q9UK32) | 100 |
| ACVR2B (Homo sapiens, UniProt Q13705) | 100 |
| HUNK (Homo sapiens, UniProt P57058) | 86 |
| PAK4 (Homo sapiens, UniProt O96013) | 100 |
| MAPK10 (Homo sapiens, UniProt P53779) | 78 |
| DYRK1A (Homo sapiens, UniProt Q13627) | 78 |
| FLT3 (Homo sapiens, UniProt P36888, D835H) | 100 |
| WNK3 (Homo sapiens, UniProt Q9BYP7) | 100 |
| CDK13 (Homo sapiens, UniProt Q14004) | 100 |
| MINK1 (Homo sapiens, UniProt Q8N4C8) | 100 |
| NEK11 (Homo sapiens, UniProt Q8NG66) | 98 |
| CSNK1G2 (Homo sapiens, UniProt P78368) | 86 |
| TRPM6 (Homo sapiens, UniProt Q9BX84) | 100 |
| CAMK1D (Homo sapiens, UniProt Q8IU85) | 100 |
| TSSK3 (Homo sapiens, UniProt Q96PN8) | 100 |
| CLK4 (Homo sapiens, UniProt Q9HAZ1) | 92 |
| RIPK2 (Homo sapiens, UniProt O43353) | 100 |

Series 4
SMILES: COc1ccc(-c2cnc3c(-c4ccsc4)cnn3c2)cc1
Effect on: enzyme activity
Mode: inhibitor
Concentration: 0.5 µM
Relative to: control
| target | remaining activity [%] |
| --- | --- |
| FGFR1 (Homo sapiens, UniProt P11362) | 80.3 |
| ACVR1B (Homo sapiens, UniProt P36896) | 100 |
| EPHA3 (Homo sapiens, UniProt P29320) | 93.4 |
| ULK2 (Homo sapiens, UniProt Q8IYT8) | 103 |
| CSNK1G3 (Homo sapiens, UniProt Q9Y6M4) | 102 |
| MAPK3 (Homo sapiens, UniProt P27361) | 99.5 |
| FRK (Homo sapiens, UniProt P42685) | 85.6 |
| TAOK2 (Homo sapiens, UniProt Q9UL54) | 97.4 |
| NEK6 (Homo sapiens, UniProt Q9HC98) | 99.3 |
| GSK3B (Homo sapiens, UniProt P49841) | 99.4 |
| GRK7 (Homo sapiens, UniProt Q8WTQ7) | 99.9 |
| NEK1 (Homo sapiens, UniProt Q96PY6) | 89.4 |
| MAP2K2 (Homo sapiens, UniProt P36507) | 95.5 |
| ABL2 (Homo sapiens, UniProt P42684) | 63.4 |

A few entries again (series 4):
| target | remaining activity [%] |
| --- | --- |
| TAOK2 (Homo sapiens, UniProt Q9UL54) | 97.4 |
| NEK6 (Homo sapiens, UniProt Q9HC98) | 99.3 |
| GSK3B (Homo sapiens, UniProt P49841) | 99.4 |
| GRK7 (Homo sapiens, UniProt Q8WTQ7) | 99.9 |
